Published values of several laboratories.
± gives the spread as reported.
alkB full length assumed: alkB full length assumed (Escherichia coli, UniProt P05050)
MYB52 full length assumed: MYB52 full length assumed (Arabidopsis thaliana, UniProt Q6R0C4)

| Substance | tested on | test | system | setting | scale | endpoint | result |
| --- | --- | --- | --- | --- | --- | --- | --- |
| GAGUUGAGUUGAGUUGAGUUGAGUUGAGUUGAGUUGAGUUGAGUUGAGUUGAGUU (ssRNA; single strand) | mtrB full length assumed T30P (Bacillus subtilis, UniProt P19466) | filter binding | – | together with: L-tryptophan 1 mM | – | Kd | 180 ± 30 nM |
| CCCATATCGGTGAATGCACGAGCAACCGATTGACACGGG (ssDNA) | alkB full length assumed | NECEEM | – | – | – | Kd | 29.3 ± 7.7 nM |
| GAGGCATACCAGCTTATTCAAGGGGCCGGGGCAAGGGGGGGGTACCGTGGTAGGACATAGTAAGTGCAATCTGCGAA (structured DNA) | KIT (Homo sapiens, UniProt P10721) | flow cytometry | primary GIST cells | not purified | higher = more binding | relative binding | 35.8 geometric mean |
| GAAGCATCCTCGTCAGTAAAAAGTTAATCTTTTCAACAGCTGTCATAAAGTTGTCACGGCCGAGACTTATAGTCGCTTTGTTTTTATTTTTTAATGTATTTGTACATGGAGAATCTAGAAATAATTTTGTTTAACTTTAAGAAGGAGATATACAAATGGTGAGC (dsDNA (Escherichia coli); blunt) | phoB 1-229, phosphorylated (Escherichia coli, UniProt P0AFJ5) | EMSA | double-stranded DNA, one strand shown | – | – | Kd | 590 nM |
| CACTGCTCAUGTACAGAGC (ssDNA; single strand; 5-fluoro-dU at 10) | TDG fragment (Homo sapiens) | single-turnover kinetics | – | extrapolated, saturation not reached | – | Kd | 4000 nM |
| TGCCTAGCGTTTCATTGTCCCTTCTTATTAGGTGATAATA (ssDNA) | alkB full length assumed | NECEEM | – | – | – | Kd | 27.5 ± 2.5 nM |
| YGIGVGW | – | – | peptide, human polyclonal IgM RF ABR | concentration not given, 5 µg/mL mAb II-481 coated, together with: RF at 50% max binding concentration | – | inhibition | 12% |
| GAACCTTTTTTTAGTGGTTATAGTTAAGAACAACCTATATATAGTTCTTTTTTATTCAGTAAAAAAAACAGTCATAAGAAGTACTACT (dsDNA) | MYB52 full length assumed | EMSA | double-stranded DNA, one strand shown | – | – | binding | binds |
| RDGAWFA | – | – | peptide, human polyclonal IgM RF SOR | concentration not given, 5 µg/mL mAb II-481 coated, together with: RF at 50% max binding concentration | – | inhibition | 14% |
| UGT1A9 (Homo sapiens, UniProt O60656) | O=C1OC[C@H](Cc2cccc(O)c2)[C@H]1Cc1cccc(O)c1 | steady-state kinetics | – | pH 7.4, 37 °C | – | Vmax/Km | 92 µL/min/mg |
| AGUGCAAGACGUUCGCAGAUUAGCGAAAAGAGGGUCUCAUUGACUAGUAC (structured RNA; 2'-F pyrimidines, two stem-loops) | TNFRSF17 (Homo sapiens, UniProt Q02223) | qRT-PCR cell binding | COS-7 | 30 min, 37 °C, apparent, transfected, not purified | – | Kd | 79.4 nM |
| GGTGGTGGTAAGATGATGAAGAGAACAGTC / CGCCACACTTCCTTCTCTCTCTCCTCTCCGACGCACTGTTCTCTTCATCATCTTACCACCACC (dsDNA; 5' overhang 33 nt, amino-C6-dT, 3' mismatch) | xthA full length assumed D151N/W212A (Escherichia coli, UniProt P09030) | smFRET | – | together with: MgCl2 1 mM | – | Kd | 0.58 nM |
| GCGGTAAACTGCGTCCGAAGGGGCNTGCAGTGANCCCGAATGGGTCCGCCGCGAAGCG (XNA; Ds at 25 and 34, internal stem-loops, 3' mini-hairpin) | VEGFA fragment (Homo sapiens) | SPR | – | – | – | Kd | 0.0012 nM |
| GGGAGGUGUGUUAGCACACGAUUCAUAAUCAGCUACCCUCCC (XNA aptamer; 2'-F C/U, 3' inverted dT, 5' thiol) | Ly75 28-1723 (Mus musculus, UniProt Q60767) | flow cytometry | A20.Kb | apparent, not purified | – | Kd | 23 ± 6 nM |
| CAGTCATAAGAAGTACTACTAATTATTTCTTTTAAATTTGAATTTGTGTGGGGAATACCAAAGTAACTACTGATTGCTGGTAATTAATGTTTCCAGTGACTAATGAGAAAAAACAACTTGGGATGGAAAACTTATCATC (dsDNA) | MYB52 full length assumed | EMSA | double-stranded DNA, one strand shown | – | – | binding | binds |

A few entries again:
| Substance | tested on | test | system | setting | scale | endpoint | result |
| --- | --- | --- | --- | --- | --- | --- | --- |
| TGCCTAGCGTTTCATTGTCCCTTCTTATTAGGTGATAATA (ssDNA) | alkB full length assumed | NECEEM | – | – | – | Kd | 27.5 ± 2.5 nM |
| RDGAWFA | – | – | peptide, human polyclonal IgM RF SOR | concentration not given, 5 µg/mL mAb II-481 coated, together with: RF at 50% max binding concentration | – | inhibition | 14% |
